Results collected from several papers.
A part holds a random share of what one study measured.

Set 1 — method: competition protein-binding microarray; molecule type: double-stranded DNA, one strand shown; matrix: in vitro; concentration: 2 µM; together with: Cbf1 competitor, 0.05 µM; direction: higher = stronger binding; shared flanks, not repeated: … GTCTTGATTCGCTTGACGCTGCTG
Target: Phosphate system positive regulatory protein PHO4, full length, GST-tagged (PHO4, Saccharomyces cerevisiae, UniProt P07270, residues 1-312)
Notes: whole 60-bp probe, lowest competitor level
Target sequence (chain): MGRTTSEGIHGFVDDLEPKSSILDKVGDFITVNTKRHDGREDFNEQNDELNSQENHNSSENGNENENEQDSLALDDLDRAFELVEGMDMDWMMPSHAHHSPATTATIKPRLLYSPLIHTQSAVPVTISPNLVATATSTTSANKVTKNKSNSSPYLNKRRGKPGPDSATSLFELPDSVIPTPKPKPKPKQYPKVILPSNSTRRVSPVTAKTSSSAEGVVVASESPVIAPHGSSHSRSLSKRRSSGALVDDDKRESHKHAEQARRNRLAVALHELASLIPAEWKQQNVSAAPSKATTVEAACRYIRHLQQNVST
Strand	fluorescence intensity [a.u.]
CACTGACTCAGCAGACACGTGGCTGGGCTCAGGCTG	18300
CATACCCAACCTTTTCACGTGAGGTAAGATATTTGT	12200
CATACCCAACCTTGCAGCGTGGGTGAAGATATTTGT	8460
TAATTTCGAAGTACCTATATTTTTAACCAATCTCGG	2560
AGTAAAAGACGAAAGCACGTTAACAATGGAACACTC	7980
ACACACATTCTCCGTCACATGGACGATGCCAGAGTC	9580

Set 2 — method: RNA Bind-n-Seq; molecule type: RNA; matrix: in vitro; concentration: 365 nM; baseline: no-protein control; direction: higher = stronger binding
Target: RNA binding protein fox-1 homolog 2, RRM domain, GST-SBP tag (RBFOX2, Homo sapiens, UniProt O43251-10, residues 100-194)
Notes: natural RNA segment, single round, ends assumed
Shared flanks, not repeated: GGGAGUUCUACAGUCCGACGAUC … UGGAAUUCUCGGGUGCCAA
Residues (chain): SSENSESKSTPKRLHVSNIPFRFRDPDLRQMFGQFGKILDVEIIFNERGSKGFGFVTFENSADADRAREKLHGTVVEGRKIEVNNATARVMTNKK
Strand	RBNS enrichment (R)
AGUUUUGGGUUUCUCCCCUGUCCCAAGGCUCAGAGUCUUCAUCUCCUACGUGACUGACUACAGUUGGUUUGGAGGCCCUGGACCUCUGUGGCGUCUUUGAAGCCUGGCCU	0.398
AGCACUGUGUGACUUUGUGAAGGACACUGCCUUGGAAAUGUUGACUGACGUUUAUGCCUGGUGAUAGCAUGUCCCGAGAAGCAUGGACAUGGAGUUUUGUUUUAAUAAAC	17.2
UCUCUUCCAAGUCUCCAGAUUCUGGAACUCCCGUGUCUUUUUCUUUUCUCACUUGCACCCCUGCACCUCGUUAUGACCCCUAUUUUUCUGGGAUUUUCUUGGUCCUCAUU	4.87
UAUAUAUAGUACUUCUAUAAAUAACAGUUUUUAAGAAAUAGGUAAGUGGGGCAGGUUUGGUGGCUUCUGCCUGUAAUCACUGCAUUCAGAGGGGGCCAAGGCCUGUUUCA	0.818
GAGCAUUUUGUAAGCUGCCCUCACACUAUAUAAUGGACAAUCUUUAUUCUGUUCUUUAGUAUAACAGCAAGUAUAAUUAUGCCGAGUCCUGCCAUCAUAAGUAUGGAGUA	0.444
GCUUUGAAAAGUAUAAGGUGCCAUCCACAUAACCUGGUGUUCACGAGAACACACUAAAGGACUCCUGAGUCACUACCACAGCCACCUGGAAACCACAAGGCAUUUGAUGC	0.334
GUACAUAAUGAAAAUAUGCGUGUACAUAUAUUUUCCUUCUUGACACUACUUGAUCAUUAUAUCAAGUGUAUUUUUGUACAUAAUAUAUAUUGGUUAGAAAAAAAUAGAUU	0.551

Set 3 — method: RNA Bind-n-Seq; molecule type: RNA; matrix: in vitro; concentration: not given; baseline: input RNA pool; direction: higher = stronger binding
Target: RING finger protein unkempt homolog, zinc fingers 1-6, GST-SBP tag (UNK, Homo sapiens, UniProt Q9C0B0, residues 30-357)
Notes: RNA with constant flanks, human-mouse chimeric sites, ends assumed
Shared flanks, not repeated: GGGAGUUCUACAGUCCGACGAUC … CAACAGAGGAUUGAGCAUCA
Target sequence (chain): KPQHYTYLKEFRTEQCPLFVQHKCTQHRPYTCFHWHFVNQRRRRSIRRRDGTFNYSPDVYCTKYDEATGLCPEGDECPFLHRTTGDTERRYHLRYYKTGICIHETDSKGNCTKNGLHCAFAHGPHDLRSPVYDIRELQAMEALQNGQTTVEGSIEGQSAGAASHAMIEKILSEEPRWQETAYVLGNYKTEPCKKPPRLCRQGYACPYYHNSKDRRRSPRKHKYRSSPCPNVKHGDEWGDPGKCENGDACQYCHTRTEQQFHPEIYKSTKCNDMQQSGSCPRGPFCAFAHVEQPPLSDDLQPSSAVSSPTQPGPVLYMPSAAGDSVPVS
Strand	bound/input enrichment
GCUCCUCUUCCGCACUCAGCCUGGGGACACUGGGCUGGGACCAGAAUCCAGCUUUCUUUUAAAACUCUCAGUGUAACUGUAUCCCGUGACAUUUCAUUUUUUUUUUAUAGUGUAUUUUUU	11.8 ratio
CAGUCCCGCGACAGCGUUGCAGGACGAGAACAUGGACAACUCAAAGCGGACCCUCUAUUGUAGUUCUUGAUUCUCGAAAUGUGCUAUUAUUGUUUGUCUUUUUUUUUUUUUUUUUAAAGA	0.746 ratio
UCUGGUCACACUCGUGUGUAUGGUGUUUGCUUUGUUGACACUUCACUGGGCAAGUUUUUCAUCGGCCAGUUUUCGGAUGACCGCCACUGUUCGAGAUUUAGGACGCUAGUGGCUCACUAU	0.234 ratio
GAGUCGAUUAUGGAAACAACAAUUCGUUUUACAAAAACCUCAGUGUUCACUUGCUUGGCGAUAGCAUUGGGGUUUUAUAGGUUCUGGAAGGAGAACUGACGAUGAUGCUGCCGCUGCUGC	0.27 ratio
UUUGUAUUUAUGCUAAGCACGCGUGCUGGUGGUCUGGGCAUCAAUCUUGCGACUGCUGAUGUAGUCAUUUUAUAUGACUCAGAUUGGAAUCCGCAAGUUGAUCUUCAGGCUAUGGACCGU	0.113 ratio
GUGCCCUUCUCGCUGCUGCGGAGCCCGCCCAGCUGGGCAUUCCGGGACUGGUACCCUGCACACAGCCGCCUCUUCGAUCAAGCUUUCGGGGUGCCCCGGCUGCCGGAUGAGUGGUCGCAG	0.0593 ratio
AUAGAUGAAAUUGAUGUGGACCAGGAAGGAAUUGCAGAAAUGAUGCUGGAUGAAAAUGCUAUUGCUCAGGUCCCACGCCCUGGCACAUCUUUGAAGCUCCCUGGCACUAACCAAACAGGA	0.316 ratio
CUGGCACUCUAUCAGAUAUAUUAAUUUUUUAAUGUAGAUGUAAUUUUAAAAAUGAAUGGCUACUUUACACGUUUAACUAGGGUUUUACUACAUAUGUGUACAUAUGUAUAUGUAUUUAUA	7.55 ratio

Mixed results
Substance	target	assay	test system	setting	scale	quantity	value
PhoQ, residues 284 288 289 292 302 303 AGGCYF	PhoP, residues 12 14 15 18 19 HLGGL (Escherichia coli, UniProt P23836)	Sort-seq, refers to: YFP reporter	E. coli	PhoQ-PhoP variant library, together with: 10 µM Mg2+	baseline: high Mg2+ state, higher = stronger signaling	fold induction	4.62

Repeated from above (set 2):
Strand	RBNS enrichment (R)
UAUAUAUAGUACUUCUAUAAAUAACAGUUUUUAAGAAAUAGGUAAGUGGGGCAGGUUUGGUGGCUUCUGCCUGUAAUCACUGCAUUCAGAGGGGGCCAAGGCCUGUUUCA	0.818
GAGCAUUUUGUAAGCUGCCCUCACACUAUAUAAUGGACAAUCUUUAUUCUGUUCUUUAGUAUAACAGCAAGUAUAAUUAUGCCGAGUCCUGCCAUCAUAAGUAUGGAGUA	0.444
